Published values of several laboratories.
Several values in a cell are separate wells, animals, samples, runs or records. ± marks the error that the study gave.
uncharacterized protein: uncharacterized protein (Spodoptera exigua, UniProt F1CEY0)
ALB: Albumin (ALB, Homo sapiens, UniProt P02768)
SNF1: Carbon catabolite-derepressing protein kinase (SNF1, Candida albicans, UniProt P52497)
Chain of UniProt P52497 (whole entry, looked up): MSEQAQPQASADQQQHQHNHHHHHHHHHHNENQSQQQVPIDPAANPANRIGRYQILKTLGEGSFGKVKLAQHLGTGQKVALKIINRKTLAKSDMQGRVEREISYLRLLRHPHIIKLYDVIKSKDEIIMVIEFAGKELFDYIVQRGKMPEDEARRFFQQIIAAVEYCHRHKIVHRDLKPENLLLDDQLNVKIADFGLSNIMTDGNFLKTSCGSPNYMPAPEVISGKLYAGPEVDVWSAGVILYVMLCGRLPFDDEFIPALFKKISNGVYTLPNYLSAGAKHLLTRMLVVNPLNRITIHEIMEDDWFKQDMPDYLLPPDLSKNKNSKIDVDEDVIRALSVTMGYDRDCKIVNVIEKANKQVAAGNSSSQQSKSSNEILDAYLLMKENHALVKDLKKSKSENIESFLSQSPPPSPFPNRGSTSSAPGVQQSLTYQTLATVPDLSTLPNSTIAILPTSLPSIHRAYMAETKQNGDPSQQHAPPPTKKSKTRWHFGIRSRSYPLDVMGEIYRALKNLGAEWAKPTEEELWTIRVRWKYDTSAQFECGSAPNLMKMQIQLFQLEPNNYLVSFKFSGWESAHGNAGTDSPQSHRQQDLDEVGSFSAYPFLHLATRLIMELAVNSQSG
T1: ssDNA, aptamer; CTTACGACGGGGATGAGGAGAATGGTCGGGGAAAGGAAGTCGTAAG
Chain of UniProt Q16774 (whole entry, unmodified, looked up): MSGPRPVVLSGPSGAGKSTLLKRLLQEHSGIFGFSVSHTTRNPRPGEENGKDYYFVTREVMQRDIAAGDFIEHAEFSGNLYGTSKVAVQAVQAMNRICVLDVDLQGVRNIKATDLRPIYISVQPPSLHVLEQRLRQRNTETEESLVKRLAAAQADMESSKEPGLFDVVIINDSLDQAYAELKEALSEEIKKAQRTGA
Chain of UniProt P51575 (whole entry, unmodified, looked up): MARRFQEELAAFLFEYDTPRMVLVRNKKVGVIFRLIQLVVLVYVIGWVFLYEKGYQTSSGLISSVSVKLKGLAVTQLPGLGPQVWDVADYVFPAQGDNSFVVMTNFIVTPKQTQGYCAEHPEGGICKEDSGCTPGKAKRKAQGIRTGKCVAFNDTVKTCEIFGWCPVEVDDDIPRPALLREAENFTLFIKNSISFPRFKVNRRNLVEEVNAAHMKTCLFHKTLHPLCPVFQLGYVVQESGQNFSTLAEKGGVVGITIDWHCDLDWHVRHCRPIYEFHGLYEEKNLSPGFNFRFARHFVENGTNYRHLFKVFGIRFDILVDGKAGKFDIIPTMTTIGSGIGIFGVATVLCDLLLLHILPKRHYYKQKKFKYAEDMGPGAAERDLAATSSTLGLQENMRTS
Chain of UniProt Q64663 (whole entry, unmodified, looked up): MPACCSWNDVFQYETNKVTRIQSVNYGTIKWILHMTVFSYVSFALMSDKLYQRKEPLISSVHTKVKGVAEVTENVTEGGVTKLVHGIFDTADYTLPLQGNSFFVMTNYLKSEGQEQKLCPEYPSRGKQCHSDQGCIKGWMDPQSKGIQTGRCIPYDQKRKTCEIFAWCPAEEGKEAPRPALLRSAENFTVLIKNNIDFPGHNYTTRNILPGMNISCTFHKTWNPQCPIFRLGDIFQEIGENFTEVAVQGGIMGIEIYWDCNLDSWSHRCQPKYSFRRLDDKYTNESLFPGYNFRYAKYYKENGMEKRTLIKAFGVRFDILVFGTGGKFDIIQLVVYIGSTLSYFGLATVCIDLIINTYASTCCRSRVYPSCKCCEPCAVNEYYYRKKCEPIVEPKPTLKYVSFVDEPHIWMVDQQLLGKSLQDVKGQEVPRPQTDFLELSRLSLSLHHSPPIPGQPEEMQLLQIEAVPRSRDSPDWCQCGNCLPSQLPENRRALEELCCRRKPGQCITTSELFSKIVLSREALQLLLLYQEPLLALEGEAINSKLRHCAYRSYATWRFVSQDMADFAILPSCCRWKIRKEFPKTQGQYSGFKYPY
Chain of UniProt P02763 (whole entry, looked up): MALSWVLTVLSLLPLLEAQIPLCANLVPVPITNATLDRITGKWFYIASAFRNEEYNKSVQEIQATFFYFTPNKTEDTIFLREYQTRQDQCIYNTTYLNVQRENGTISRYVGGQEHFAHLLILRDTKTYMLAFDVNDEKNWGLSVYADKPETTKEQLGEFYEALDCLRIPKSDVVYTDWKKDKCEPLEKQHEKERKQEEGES
Chain of UniProt P40337 (whole entry, looked up): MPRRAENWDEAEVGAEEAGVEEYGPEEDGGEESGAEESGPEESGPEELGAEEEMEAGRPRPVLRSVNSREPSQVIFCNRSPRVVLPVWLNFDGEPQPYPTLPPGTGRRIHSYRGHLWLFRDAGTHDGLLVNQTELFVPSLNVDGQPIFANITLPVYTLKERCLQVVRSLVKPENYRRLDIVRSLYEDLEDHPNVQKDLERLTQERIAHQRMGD
Chain of UniProt Q8IZX4 (whole entry, looked up): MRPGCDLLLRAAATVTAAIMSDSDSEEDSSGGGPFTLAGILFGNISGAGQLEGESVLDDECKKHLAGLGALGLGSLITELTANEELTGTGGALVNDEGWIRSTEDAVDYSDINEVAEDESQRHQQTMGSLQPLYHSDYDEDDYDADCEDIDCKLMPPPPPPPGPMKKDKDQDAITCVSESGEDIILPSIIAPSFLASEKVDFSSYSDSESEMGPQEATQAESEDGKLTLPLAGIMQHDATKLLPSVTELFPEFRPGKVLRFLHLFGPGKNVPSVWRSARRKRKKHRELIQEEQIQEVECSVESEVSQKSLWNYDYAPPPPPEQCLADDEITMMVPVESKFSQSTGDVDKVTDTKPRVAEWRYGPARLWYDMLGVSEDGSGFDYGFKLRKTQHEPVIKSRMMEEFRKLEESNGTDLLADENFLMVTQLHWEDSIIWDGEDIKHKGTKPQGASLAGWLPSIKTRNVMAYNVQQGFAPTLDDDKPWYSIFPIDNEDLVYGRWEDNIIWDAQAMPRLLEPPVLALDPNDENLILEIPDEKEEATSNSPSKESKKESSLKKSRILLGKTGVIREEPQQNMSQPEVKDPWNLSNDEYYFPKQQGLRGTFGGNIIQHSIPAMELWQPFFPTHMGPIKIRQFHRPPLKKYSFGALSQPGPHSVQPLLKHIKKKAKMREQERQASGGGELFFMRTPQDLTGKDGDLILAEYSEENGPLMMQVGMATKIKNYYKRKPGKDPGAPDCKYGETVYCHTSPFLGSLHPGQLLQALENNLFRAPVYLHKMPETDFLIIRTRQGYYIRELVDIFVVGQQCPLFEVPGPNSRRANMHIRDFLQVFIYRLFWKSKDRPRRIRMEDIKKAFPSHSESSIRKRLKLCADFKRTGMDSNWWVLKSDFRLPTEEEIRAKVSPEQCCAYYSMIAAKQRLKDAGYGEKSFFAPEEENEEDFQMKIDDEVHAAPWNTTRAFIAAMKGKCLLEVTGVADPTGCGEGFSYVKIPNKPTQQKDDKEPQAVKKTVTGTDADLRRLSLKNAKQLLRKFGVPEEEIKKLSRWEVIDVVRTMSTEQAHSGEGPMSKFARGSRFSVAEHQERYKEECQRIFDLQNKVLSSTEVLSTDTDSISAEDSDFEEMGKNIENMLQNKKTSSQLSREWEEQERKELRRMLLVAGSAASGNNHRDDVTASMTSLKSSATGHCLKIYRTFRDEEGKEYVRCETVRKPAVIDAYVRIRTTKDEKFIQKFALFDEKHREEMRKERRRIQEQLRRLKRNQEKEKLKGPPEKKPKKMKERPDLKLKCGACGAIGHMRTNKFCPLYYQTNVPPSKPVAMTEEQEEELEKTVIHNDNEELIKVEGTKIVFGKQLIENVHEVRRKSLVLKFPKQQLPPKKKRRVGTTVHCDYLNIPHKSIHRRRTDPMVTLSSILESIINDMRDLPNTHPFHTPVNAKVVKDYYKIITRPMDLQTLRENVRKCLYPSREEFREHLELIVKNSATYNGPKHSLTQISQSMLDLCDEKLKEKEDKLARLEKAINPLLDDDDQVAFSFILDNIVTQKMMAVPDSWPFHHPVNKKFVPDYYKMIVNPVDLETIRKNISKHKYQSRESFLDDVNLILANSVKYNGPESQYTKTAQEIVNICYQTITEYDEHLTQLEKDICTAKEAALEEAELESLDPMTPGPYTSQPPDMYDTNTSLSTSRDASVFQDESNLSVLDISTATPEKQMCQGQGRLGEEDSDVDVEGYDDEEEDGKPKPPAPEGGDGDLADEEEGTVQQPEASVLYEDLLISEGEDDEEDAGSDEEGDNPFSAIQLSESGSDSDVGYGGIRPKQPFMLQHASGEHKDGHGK

Compound | target | test | test system | conditions | scale | quantity | result
CCC/C=C/C=O | uncharacterized protein | binding, 1-NPN competitive displacement | – | protein 2.0 µM, added: 1-NPN 20 µM | relative to: 1-NPN without compound, lower = stronger binding | relative fluorescence | 67.8%
O=c1nc(SCc2cc(F)cc(C(F)(F)F)c2)nc(SCc2ccc3nc(OCCN4CCOCC4)ccc3c2)[nH]1 | DNA topoisomerase 2-alpha (TOP2A, Homo sapiens, UniProt P11388) | decatenation | – | 125 µM, replicate 1 | – | decatenated DNA | 0%
O=C(Nc1cccnn1)N1CCC(=Cc2cccc(Oc3ccc(C(F)(F)F)cn3)c2)CC1 | human off-target panel | – | – | 50 µM | – | number of off-targets hit | 37
CC(C)c1cccc(C(C)C)c1O | Voltage-gated sodium channel NavMs (Magnetococcus marinus, UniProt A0L5S6) | allosteric modulator, whole-cell patch clamp | HEK293 | 1 µM, pH 7.3, 22–25 °C | – | ΔV1/2 of activation | -3.14 ± 1.47 mV
CC(C)OCCn1c(=S)[nH]c(=O)c2[nH]ccc21 | Myeloperoxidase (MPO, Homo sapiens, UniProt P05164) | H2O2 consumption, inhibitor, H2O2 electrode | – | 10 µM, 0.2 s | – | H2O2 concentration | -0.719 µM
CC/C=C/CCO | uncharacterized protein | binding, 1-NPN competitive displacement | – | protein 2.0 µM, added: 1-NPN 20 µM | relative to: 1-NPN without compound, lower = stronger binding | relative fluorescence | 74.9%
Nc1ncnc2c1ncn2[C@@H]1O[C@H](COP(=O)(O)OP(=O)(O)OP(=O)(O)O)[C@@H](O)[C@H]1O | P2X purinoceptor 7 (P2rx7, Rattus norvegicus, UniProt Q64663) | ion current, agonist, two-electrode voltage clamp | Xenopus laevis oocytes | 111 µM | relative to: highest concentration response | normalized current | 0.93 and 0.8 and 0.82
CC1(F)CN(C(=O)Cn2c(=O)c(C(=O)NCc3ccc(Cl)cc3)cc3nc(N4CCNC4=O)cnc32)C1 | DNA polymerase catalytic subunit (Human cytomegalovirus, UniProt P08546) | enzyme activity, inhibitor | – | retest | – | Hill slope | 0.9
N[C@H](CNC(=O)c1ccc(-c2ccccc2Br)s1)C(=O)O | Glutamate receptor ionotropic, NMDA 1, with GluN2C (Grin1, Rattus norvegicus, UniProt P35439) | – | – | added: glutamate 300 µM | – | Hill slope | 1.35
OC[C@H]1O[C@@H](Oc2cc3c(O)cc(O)cc3[o+]c2-c2cc(O)c(O)c(O)c2)[C@H](O)[C@@H](O)[C@@H]1O | ALB | binding, fluorescence quenching | – | 20 °C | – | Gibbs free energy | -27.9 kJ/mol
Nc1nc2c(ncn2[C@@H]2O[C@H](COP(=O)(O)O)[C@@H](O)[C@H]2O)c(=O)[nH]1 | GUK1 (Homo sapiens, UniProt Q16774, D103A) | enzyme activity, NADH-coupled | – | 1000 µM | – | reaction rate | 14 s⁻¹ and 15 s⁻¹ and 14.9 s⁻¹
COc1ccc(-c2cc(=O)c3c(O)c(O)c(OC)cc3o2)cc1 | O-methyltransferase (Citrus reticulata) | C6 O-methylation, substrate | – | added: S-adenosylmethionine | – | Km | 18.1 ± 1.45 µM
CN(C)C(=O)C(CCN1CCC(O)(c2ccc(Cl)cc2)CC1)(c1ccccc1)c1ccccc1 | Calcium-activated potassium channel subunit alpha-1, with LRRC26 γ1 subunit (KCNMA1, Homo sapiens, UniProt Q12791) | BK current, inhibitor, inside-out patch clamp | excised membrane patch | 0.3 µM, γ1 subunit coexpressed, added: nominally 0 Ca2+ cytosolic | relative to: without loperamide | normalized Gmax | 0.784
C=CC(=O)N1CCC(COCC(=O)N2CCN(c3nc(-c4cnc(N)nc4C(F)F)nc(N4CCOC[C@@H]4C)n3)CC2)CC1 | Wee1-like protein kinase 2 (WEE2, Homo sapiens, UniProt P0C1S8) | KINOMEscan | – | 1 µM | – | remaining binding | 97%
COc1cc(-c2cncc3c2CN(C)Cc2cc(N4CCNCC4)ccc2-3)cc(OC)c1OC | Transcription initiation factor TFIID subunit 1-like (TAF1L, Homo sapiens, UniProt Q8IZX4) | kinase activity | – | 1 µM, human enzyme, added: ATP 10 µM | relative to: DMSO control | remaining activity | 115%
O=C(Nc1cnccc1Cl)N1CCN(Cc2ccc3c(c2)OC(F)(F)O3)CC1 | Fatty-acid amide hydrolase 1 (FAAH, Homo sapiens, UniProt O00519) | binding, ex vivo radioligand binding | human leucocytes | 200 µM, 15 min preincubation | relative to: vehicle DMSO | reduction of probe labelling | 24%

Compound | target | test | test system | conditions | scale | quantity | result
CCN(CCO)CCCC(C)Nc1ccnc2cc(Cl)ccc12 (stereo not shown) | Sodium channel protein type 5 subunit alpha (SCN5A, Homo sapiens, UniProt Q14524) | sodium current | – | 300 µM | – | activation V1/2 | -47.7 ± 3.6 mV
O=c1cc(CO)occ1[O-].[Cl-].[W+4].c1cc[cH-]c1.c1cc[cH-]c1 | ALB | fluorescence quenching | – | 317 K | – | Stern-Volmer quenching constant | 14100 L/mol
N[C@H](CNC(=O)c1cc(Br)c(-c2ccccc2F)s1)C(=O)O | Glutamate receptor ionotropic, NMDA 1, with GluN2C (Grin1, Rattus norvegicus, UniProt P35439, F754L) | receptor activation | rat | added: glutamate 300 µM | – | log EC50 | -1.72 µM
CC(=O)N[C@H](C(=O)N1C[C@H](O)C[C@H]1C(=O)NCc1ccc(-c2scnc2C)cc1)C(C)(C)SCCCCCCNC(=O)C[C@@H]1N=C(c2ccc(Cl)cc2)c2c(sc(C)c2C)-n2c(C)nnc21 | von Hippel-Lindau disease tumor suppressor, with elongin B/C (VHL, Homo sapiens, UniProt P40337) | PROTAC, ITC | – | concentration not given, 25 °C | – | binding stoichiometry | 0.81 ± 0.04
CCCCCCCC=O | uncharacterized protein | binding, competitor, fluorescence displacement | – | 20 µM, pH 7.4, added: 1-NPN 20 µM | relative to: 1-NPN alone | relative fluorescence | 67.6%
Nc1ncnc2c1ncn2[C@@H]1O[C@H](COP(=O)(O)CP(=O)(O)OP(=O)(O)O)[C@@H](O)[C@H]1O | P2X purinoceptor 1 (P2RX1, Homo sapiens, UniProt P51575, D97A) | calcium influx | – | 316 nM | relative to: ionomycin response | calcium influx | 84.3% and 77.9% and 91.9% and 76.4%
CC[C@@H]1[C@H](F)C(=O)N[C@@H]1COc1nccc2cc(C(N)=O)c(OC)cc12 | SNF-related serine/threonine-protein kinase (SNRK, Homo sapiens, UniProt Q9NRH2) | ATP-site probe binding, ActivX profiling | THP-1 cell lysate | 0.04 mM, Lys2 site | – | inhibition | 1.9%
Nc1ncnc2c1ncn2[C@@H]1O[C@H](COP(=O)(O)OP(=O)(O)OP(=O)(O)O)[C@@H](O)[C@H]1O | T1, ssDNA, aptamer | ITC | – | – | – | Kd | 0.7 µM
CC[C@H](C)[C@@H]1NC(=O)[C@H](Cc2ccc(O)cc2)NC(=O)[C@H](CC(C)C)NC(=O)[C@@H]2CCCN2C(=O)[C@@H](NC(=O)[C@H](CCCNC(=N)N)NC(=O)[C@H](CCCNC(=N)N)NC(C)=O)CSSC[C@@H](C(=O)N[C@@H](CCCNC(=N)N)C(=O)N[C@@H](CCCNC(=N)N)C(N)=O)NC(=O)[C@H](C(C)C)NC(=O)[C@@H]2CCCN2C(=O)[C@H](CC(=O)O)NC(=O)[C@H](Cc2ccc(O)cc2)NC(=O)[C@H](Cc2cscn2)NC1=O | GTPase KRas, GDP-bound (KRAS, Homo sapiens, UniProt P01116, G12D) | affinity selection mass spectrometry | – | mixture library 2, added: protein titration up to 5 µM | lower is stronger binding | lowest bound protein concentration | 0.16 µM
NCCCS(=O)(=O)O | Sodium- and chloride-dependent taurine transporter (SLC6A6, Homo sapiens, UniProt P31641, G62A) | binding, microscale thermophoresis | – | 31.3 µM, room temperature, added: 50 nM labelled protein | higher = more binding | normalised MST signal | -0.0607
Cc1cc(-c2ccnc3[nH]cc(F)c23)cc(F)c1[C@@]1(O)[C@H](C)CN(C(=O)CN)C[C@@H]1C | Tyrosine-protein kinase JAK1 (JAK1, Homo sapiens, UniProt P23458) | ATP/ADP probe binding, KiNativ | HEK293T lysate | 1 µM, activation loop domain 2 | – | probe labelling inhibition | 35.1%
c1coc(-c2n[nH]cc2-c2ccnc3ccccc23)c1 | SNF1 | kinase binding, MIB/MS competition | Candida albicans lysate | 10 µM | relative to: DMSO, negative = stronger binding | log2 fold change | -0.11
CCS(=O)(=O)N1CC(CC#N)(n2cc(-c3ncnc4[nH]ccc34)cn2)C1 | Alpha-1-acid glycoprotein 1 (ORM1, Homo sapiens, UniProt P02763) | circular dichroism | – | 298 K | – | antiparallel β-sheet content | 43.9%
CC[C@H](C)[C@@H]1NC(=O)[C@H](Cc2ccc(O)cc2)NC(=O)[C@@H](N)CSSC[C@@H](C(=O)N2CCC[C@H]2C(=O)N[C@@H](CC(C)C)C(=O)NCC(N)=O)NC(=O)[C@H](CC(N)=O)NC(=O)[C@H](CCC(N)=O)NC1=O | Oxytocin receptor (Rattus norvegicus, UniProt P70536) | – | rat myoepithelial cells | concentration not given | – | binding sites per cell | ~80000
c1ccc(-c2n[nH]cc2-c2ccnc3ccccc23)nc1 | SNF1 | kinase binding, competitor, MIB/MS competition, refers to: SNF1 | Candida albicans cell lysate | 10 µM | relative to: DMSO | log2 fold change | 0.723

Some of these lines once more:
Compound | target | test | test system | conditions | scale | quantity | result
CC(=O)N[C@H](C(=O)N1C[C@H](O)C[C@H]1C(=O)NCc1ccc(-c2scnc2C)cc1)C(C)(C)SCCCCCCNC(=O)C[C@@H]1N=C(c2ccc(Cl)cc2)c2c(sc(C)c2C)-n2c(C)nnc21 | von Hippel-Lindau disease tumor suppressor, with elongin B/C (VHL, Homo sapiens, UniProt P40337) | PROTAC, ITC | – | concentration not given, 25 °C | – | binding stoichiometry | 0.81 ± 0.04
CCCCCCCC=O | uncharacterized protein | binding, competitor, fluorescence displacement | – | 20 µM, pH 7.4, added: 1-NPN 20 µM | relative to: 1-NPN alone | relative fluorescence | 67.6%
Nc1ncnc2c1ncn2[C@@H]1O[C@H](COP(=O)(O)CP(=O)(O)OP(=O)(O)O)[C@@H](O)[C@H]1O | P2X purinoceptor 1 (P2RX1, Homo sapiens, UniProt P51575, D97A) | calcium influx | – | 316 nM | relative to: ionomycin response | calcium influx | 84.3% and 77.9% and 91.9% and 76.4%
CC[C@@H]1[C@H](F)C(=O)N[C@@H]1COc1nccc2cc(C(N)=O)c(OC)cc12 | SNF-related serine/threonine-protein kinase (SNRK, Homo sapiens, UniProt Q9NRH2) | ATP-site probe binding, ActivX profiling | THP-1 cell lysate | 0.04 mM, Lys2 site | – | inhibition | 1.9%
